Measurements pooled from the literature.
Protocols differ between the studies behind these lines.
Method: steady-state kinetics
B1: enzyme (Bacteroides fragilis, UniProt Q5LAA3); chain MAMLEKIQETAAFLKGKMHTSPETAIILGTGLGSLANEITEKYEIKYEDIPNFPVSTVEGHSGKLIFGKLGNKEIMAMQGRFHYYEGYSMKEVTFPVRVMRELGIKTLFVSNASGGTNPEFEIGDLMIITDHINYFPEHPLRGKNIPYGPRFPDMSEAYDKELIRKADAIAAEKGIKVQHGIYIGTQGPTFETPAEYKLFHILGADAVGMSTVPEVIVANHCGIKVFGISVVTDLGVEGKIVEVSHEEVQKAADAAQPKMTTIMRELINRA
B2: nfsB (Escherichia coli, UniProt P38489); chain MDIISVALKRHSTKAFDASKKLTPEQAEQIKTLLQYSPSSTNSQPWHFIVASTEEGKARVAKSAAGNYVFNERKMLDASHVVVFCAKTAMDDVWLKLVVDQEDADGRFATPEAKAANDKGRKFFADMHRKDLHDDAEWMAKQVYLNVGNFLLGVAALGLDAVPIEGFDAAILDAEFGLKEKGYTSLVVVPVGHHSVEDFNATLPKSRLPQNITLTEV
B3: gdhA W89F (Thermococcus profundus, UniProt O74024); chain MVEIDPFEMAVKQLERAAQYMDISEEALEWLKKPMRIVEVSVPIEMDDGSVKVFTGFRVQHNWARGPTKGGIRWHPAETLSTVKALATFMTWKVAVVDLPYGGGKGGIIVNPKELSEREQERLARAYIRAVYDVIGPWTDIPAPDVYTNPKIMGWMMDEYETIMRRKGPAFGVITGKPLSIGGSLGRGTATAQGAIFTIREAAKALGIDLKGKKIAVQGYGNAGYYTAKLAKEQLGMTVVAVSDSRGGIYNPDGLDPDEVLKWKREHGSVKDFPGATNITNEELLELEVDVLAPAAIEEVITEKNADNIKAKIVAEVANGPVTPEADDILREKGILQIPDFLCNAGGVTVSYFEWVQNINGYYWTEEEVREKLDKKMTKAFWEVYNTHKDKNIHMRDAAYVVAVSRVYQAMKDRGWVKK
B4: ADSL R303C (Homo sapiens, UniProt P30566); chain MAAGGDHGSPDSYRSPLASRYASPEMCFVFSDRYKFRTWRQLWLWLAEAEQTLGLPITDEQIQEMKSNLENIDFKMAAEEEKRLRHDVMAHVHTFGHCCPKAAGIIHLGATSCYVGDNTDLIILRNALDLLLPKLARVISRLADFAKERASLPTLGFTHFQPAQLTTVGKRCCLWIQDLCMDLQNLKRVRDDLRFRGVKGTTGTQASFLQLFEGDDHKVEQLDKMVTEKAGFKRAFIITGQTYTRKVDIEVLSVLASLGASVHKICTDIRLLANLKEMEEPFEKQQIGSSAMPYKRNPMRSECCCSLARHLMTLVMDPLQTASVQWFERTLDDSANRRICLAEAFLTADTILNTLQNISEGLVVYPKVIERRIRQELPFMATENIIMAMVKAGGSRQDCHEKIRVLSQQAASVVKQEGGDNDLIERIQVDAYFSPIHSQLDHLLDPSSFTGRASQQVQRFLEEEVYPLLKPYESVMKVKAELCL
B5: valA (Streptomyces hygroscopicus, UniProt H2K887); chain MTMTKQSSLSPGSRLYDYTTQDGAAWRVSALKEVSYDVVVQPRLLDPANPALADALSSGTTPARRLIVIDATVRSLYGEQLAAYLAGHDVEFHLCVIDAHESAKVMETVFEVVDAMDAFGVPRRHAPVLAMGGGVLTDIVGLAASLYRRATPYVRIPTTLIGMIDAGIGAKTGVNFREHKNRLGTYHPSSLTLIDPGFLATLDARHLRNGLAEILKVALVKDAELFDLLEGHGASLVEQRMQPGEGGTGGAALTVLRRAVQGMLEELQPNLWEHQLRRLVDFGHSFSPSVEMAALPELLHGEAVCIDMALSSVLAHHRGLLTEAELGRVLDVMRLLHLPVLHPVCTPDLMRAALADTVKHRDGWQHMPLPRGIGDAVFVNDVTQREIEAALLTLAERDRVPRWRALHGAVDMGV
B6: enzyme (Sulfolobus acidocaldarius, UniProt Q4J7B6); chain MKGILIAFEGIDGSGKSSQASLLKSWLSKRRYTFITEWNSSEWIHDIIKEAKKKNLLTPLTFSLIHATDFADRYEKYILPMLKCGFVVIADRYIYTAYARDSVRGVDIEWVKKLYSFAVKPDITFYIRVPSEVALKRLKSSRRQIKPTEAGADVFPNLTPEEGFIKYQSSIIEVYDRIAEENNFVVVDGTKDPRQVQSEIRGKVMELWRREGL
B7: enzyme Y24A (Nitrosopumilus maritimus, UniProt A9A5X4); chain MDSQKFDSIIFDCDGVLVDITQSADKTIDKTCRYVLKEFAKIDSITIDHKIIDGFKSSGGFNDEVDLVYAAILSLYTANKLNKKPSEFIYDVISNTDKTGIRSVQSYLESIYDVSEFLSKLGSLGDRHNNPVYSIFDQFFFGPELYGKLFDKQSKFSEEGMISNDKVILSVSLLETLQKEFGKKIAVVTGRGIESIRYSLKDMMDYFDTKNSAFLEDEPRELAKPNPATLIRAIQSMESKNCLYVGDSMEDYMMAKDAAQAGHSTTFCAIVGTSTNPEDRRKLFADSGVEMILESINDIPKVLNLV
B8: enzyme (Nicotiana tabacum, UniProt Q70G33); chain MGSEKMMKINIKESTLVKPSKPTPTKRLWSSNLDLIVGRIHLLTVYFYKPNGSSNFFDSKIMKEALSNVLVSFYPMAGRLARDEQGRIEINCNGEGVLFVEAESDAFVDDFGDFTPSLELRKLIPTVDTSGDISTFPLIIFQVTRFKCGGVSLGGGVFHTLSDGLSSIHFINTWSDIARGLSVAIPPFIDRTLLRARDPPTSSFEHVEYHPPPSLISSSKSLESTSPKPSTTTMLKFSSDQLGLLKSKSKHDGSTYEILAAHIWRCTCKARALSDDQLTKLHVATDGRSRLCPPLPPGYLGNVVFTGTPMAKSSELLQEPLTNSAKRIHSALSKMDDNYLRSALDYLELLPDLSALIRGPTYFASPNLNINSWTRLPVHDSDFGWGRPIHMGPACILYEGTVYILPSPNSKDRNLRLAVCLDADHMPLFEKYLYEF
B9: enzyme S252E (Schizosaccharomyces pombe, UniProt P78804); chain MSTPYEPEFQQAYKEIVGSIESSKLFEVHPELKRVLPIISIPERVLEFRVTWEDDKGNCRVNTGYRVQFNSALGPYKGGLRFHPSVNLSILKFLGFEQIFKNALTGLPMGGGKGGSDFDPKGKSDNEIRRFSQAFMRQLFRYIGPQTDVPAGDIGVTGFVVMHMFGEYKRLRNEYSGVVTGKHMLTGGSNIRPEATGYGVVYYVKHMIEHRTKGAETLKGKRVAISGSGNVAQYAALKCIQEGAIVKSISDEKGVLIAKTAEGLVPEEIHEIMALKEKRASIADSASLCKKHHYIAGARPWTNVGEIDIALPCATQNEVSGEEAAALIKQGCRYVAEGSNMGSSAEAVEVFEKSRASGEGCWLAPGKAANAGGVAVSGLEMAQNAQFSTWTHAEVDAKLAGIMQNIFEQSTDVASKYCDSGSNNIPSLVDGANIAGFLKVATAMQAVGDWW
B10: enzyme (Escherichia coli, UniProt P69937); chain MSWIILVIAGLLEVVWAVGLKYTHGFSRLTPSVITVTAMIVSMALLAWAMKSLPVGTAYAVWTGIGAVGAAITGIVLLGESANPMRLASLALIVLGIIGLKLSTH
B11: enzyme (Arabidopsis thaliana, UniProt Q9LY48); chain MNIFQDWPEPIVRVQSLSESNLGAIPNRYVKPLSQRPNITPHNKHNPQTTTIPIIDLGRLYTDDLTLQAKTLDEISKACRELGFFQVVNHGMSPQLMDQAKATWREFFNLPMELKNMHANSPKTYEGYGSRLGVEKGAILDWSDYYYLHYQPSSLKDYTKWPSLPLHCREILEDYCKEMVKLCENLMKILSKNLGLQEDRLQNAFGGKEESGGCLRVNYYPKCPQPELTLGISPHSDPGGLTILLPDEQVASLQVRGSDDAWITVEPAPHAFIVNMGDQIQMLSNSIYKSVEHRVIVNPENERLSLAFFYNPKGNVPIEPLKELVTVDSPALYSSTTYDRYRQFIRTQGPRSKCHIDELKSPR
UniProt P22309, sequence (whole entry, looked up): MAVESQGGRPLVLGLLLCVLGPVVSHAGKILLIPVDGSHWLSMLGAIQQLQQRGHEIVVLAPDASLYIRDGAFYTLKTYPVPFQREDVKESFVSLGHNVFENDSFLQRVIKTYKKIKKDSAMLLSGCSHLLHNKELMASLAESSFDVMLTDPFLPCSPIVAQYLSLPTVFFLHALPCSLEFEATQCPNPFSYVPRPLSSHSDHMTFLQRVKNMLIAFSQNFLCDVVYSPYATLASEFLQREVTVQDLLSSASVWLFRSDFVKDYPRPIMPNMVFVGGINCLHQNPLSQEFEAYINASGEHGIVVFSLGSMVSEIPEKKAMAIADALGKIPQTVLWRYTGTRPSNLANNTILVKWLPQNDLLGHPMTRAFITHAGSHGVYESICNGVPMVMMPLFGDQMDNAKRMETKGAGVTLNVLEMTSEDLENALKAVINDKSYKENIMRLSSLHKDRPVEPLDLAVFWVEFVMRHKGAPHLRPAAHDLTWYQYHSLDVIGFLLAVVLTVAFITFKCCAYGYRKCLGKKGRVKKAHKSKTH
UniProt P26208, sequence (whole entry, looked up): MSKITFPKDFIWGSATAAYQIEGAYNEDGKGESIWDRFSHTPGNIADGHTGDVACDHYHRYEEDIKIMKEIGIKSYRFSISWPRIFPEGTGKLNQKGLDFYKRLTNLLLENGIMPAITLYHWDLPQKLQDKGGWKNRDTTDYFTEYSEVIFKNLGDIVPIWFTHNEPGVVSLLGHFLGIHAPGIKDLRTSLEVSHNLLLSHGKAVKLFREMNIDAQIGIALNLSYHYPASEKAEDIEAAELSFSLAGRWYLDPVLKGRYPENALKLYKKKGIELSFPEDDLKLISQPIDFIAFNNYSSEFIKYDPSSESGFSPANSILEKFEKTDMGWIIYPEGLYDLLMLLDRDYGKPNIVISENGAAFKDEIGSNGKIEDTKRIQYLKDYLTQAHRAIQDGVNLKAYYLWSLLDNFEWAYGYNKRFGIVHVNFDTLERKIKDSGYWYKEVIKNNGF
UniProt P28186, sequence (whole entry, looked up): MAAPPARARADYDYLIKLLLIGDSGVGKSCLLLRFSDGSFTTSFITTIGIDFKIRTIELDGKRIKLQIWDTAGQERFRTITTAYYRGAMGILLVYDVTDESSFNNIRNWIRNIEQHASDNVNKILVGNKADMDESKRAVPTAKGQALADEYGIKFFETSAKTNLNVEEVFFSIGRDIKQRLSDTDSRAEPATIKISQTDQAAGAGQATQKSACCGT
UniProt Q96C36, sequence (whole entry, unmodified, looked up): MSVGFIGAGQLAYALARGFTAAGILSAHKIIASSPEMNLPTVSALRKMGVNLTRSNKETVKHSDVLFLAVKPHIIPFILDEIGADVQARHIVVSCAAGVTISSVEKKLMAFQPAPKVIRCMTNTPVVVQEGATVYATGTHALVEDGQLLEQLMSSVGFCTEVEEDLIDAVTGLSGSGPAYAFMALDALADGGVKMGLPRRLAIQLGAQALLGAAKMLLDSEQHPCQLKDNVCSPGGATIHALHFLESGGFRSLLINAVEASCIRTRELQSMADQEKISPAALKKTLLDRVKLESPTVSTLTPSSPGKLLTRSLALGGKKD

The Km of `acsA (Pseudomonas chlororaphis, UniProt Q5CD72)` is reported as 1200 µM (C#CCCC(=O)O; pH 7).
`B1 (enzyme)` gave a Km of 521 µM (OC[C@H]1O[C@@H](n2cnc3c(O)ncnc32)[C@H](O)[C@@H]1O).
With `UGT1A1 (Homo sapiens, UniProt P22309)` the Km was 0.88 µM (CC(C)=CCc1cc2c(cc1O)O[C@H](c1ccc(O)cc1)CC2=O; pH 7.4).
With `enzyme (Mycosarcoma maydis, UniProt A0A0U2UYC4)` the Km was 430 µM (O=C(O)/C=C(\CC(=O)O)C(=O)O; pH 5.5, 37 °C).
`RABE1C (Arabidopsis thaliana, UniProt P28186)` gave a Km of 9690 µM (Nc1nc2c(ncn2[C@@H]2O[C@H](COP(=O)(O)OP(=O)(O)OP(=O)(O)O)[C@@H](O)[C@H]2O)c(=O)[nH]1; pH 7.5, 30 °C).
For `B2 (nfsB)`, the Km was 29 µM (NC(=O)N/N=C/c1ccc([N+](=O)[O-])o1; pH 7, 37 °C, with: NADPH 110 µM).
`B3 (gdhA W89F)` gave a Km of 142 µM (NC(=O)c1ccc[n+]([C@@H]2O[C@H](COP(=O)(O)OP(=O)(O)OC[C@H]3O[C@@H](n4cnc5c(N)ncnc54)[C@H](OP(=O)(O)O)[C@@H]3O)[C@@H](O)[C@H]2O)c1; pH 7.5, 20 °C).
`B4 (ADSL R303C)` has a Km of 2.4 µM (O=C(O)C[C@H](Nc1ncnc2c1ncn2[C@@H]1O[C@H](COP(=O)(O)O)[C@@H](O)[C@H]1O)C(=O)O; pH 7.4, 25 °C).
`gdh E198G/N97F (Bacillus subtilis)` gave a Km of 170 µM (NC(=O)c1ccc[n+]([C@@H]2O[C@H](COP(=O)(O)OP(=O)(O)OC[C@H]3O[C@@H](n4cnc5c(N)ncnc54)[C@H](O)[C@@H]3O)[C@@H](O)[C@H]2O)c1; pH 7, 55 °C).
For `enzyme (Pseudomonas aeruginosa, UniProt Q9I5Q5)`, the Km was 500 µM (CC(=O)N[C@H]1[C@@H]2OC[C@@H](O2)[C@@H](O)[C@@H]1O[C@H](C)C(=O)O; pH 7.5, apparent).
`enzyme (UniProt A0A063Y6V3)` gave a Km of 30.4 µM (NC(=O)C1=CN([C@@H]2O[C@H](COP(=O)(O)OP(=O)(O)OC[C@H]3O[C@@H](n4cnc5c(N)ncnc54)[C@H](O)[C@@H]3O)[C@@H](O)[C@H]2O)C=CC1; pH 7, 30 °C, cofactor varied).
`B5 (valA)` has a Km of 49 µM (O=C(CO)[C@@H](O)[C@H](O)[C@H](O)[C@H](O)COP(=O)(O)O; pH 7.5, 28 °C).
With `B6 (enzyme)` the Km was 1660 µM (Nc1ncnc2c1ncn2[C@@H]1O[C@H](COP(=O)(O)OP(=O)(O)OP(=O)(O)O)[C@@H](O)[C@H]1O; pH 7.4, 70 °C, apparent).
`PYCR2 (Homo sapiens, UniProt Q96C36)` gave a Km of 1510 µM (O=C(O)[C@@H]1CCC=N1; pH 7.5, 37 °C, apparent, with: NADH 500 µM).
`bglA (Acetivibrio thermocellus, UniProt P26208)` has a Km of 5980 µM (O=[N+]([O-])c1ccc(O[C@@H]2O[C@H](CO)[C@@H](O)[C@H](O)[C@H]2O)cc1; pH 5.5, 60 °C).
The Km of `B7 (enzyme Y24A)` is reported as 276 µM (N[C@H](COP(=O)(O)O)Cc1c[nH]cn1; pH 7.8, 25 °C).
`B8 (enzyme)` gave a Km of 850 µM (O=C(O)[C@]1(O)C[C@@H](O)[C@@H](O)[C@H](O)C1; pH 7.5, 37 °C).
The Km of `B9 (enzyme S252E)` is reported as 290 µM (NC(=O)C1=CN([C@@H]2O[C@H](COP(=O)(O)OP(=O)(O)OC[C@H]3O[C@@H](n4cnc5c(N)ncnc54)[C@H](OP(=O)(O)O)[C@@H]3O)[C@@H](O)[C@H]2O)C=CC1; pH 7, 30 °C, apparent).
`HNL E79H/G176S/H103V/K236M/N104A/T11G (Hevea brasiliensis)` gave a Km of 40 µM (CC(=O)Oc1ccc([N+](=O)[O-])cc1; pH 7.2, 22 °C).
For `B10 (enzyme)`, the Km was 1700 µM (N=C(N)N; pH 7.5).
For `B11 (enzyme)`, the Km was 11.5 µM (CC/C=C\C[C@@H]1C(=O)CC[C@@H]1CC(=O)O; pH 7.5, 20 °C).

A few entries again:
For `enzyme (Pseudomonas aeruginosa, UniProt Q9I5Q5)`, the Km was 500 µM (CC(=O)N[C@H]1[C@@H]2OC[C@@H](O2)[C@@H](O)[C@@H]1O[C@H](C)C(=O)O; pH 7.5, apparent).
`bglA (Acetivibrio thermocellus, UniProt P26208)` has a Km of 5980 µM (O=[N+]([O-])c1ccc(O[C@@H]2O[C@H](CO)[C@@H](O)[C@H](O)[C@H]2O)cc1; pH 5.5, 60 °C).
